Experimental data of several laboratories.
Lines come from different studies, so protocols differ.
UniProt P06493, sequence (whole entry, looked up): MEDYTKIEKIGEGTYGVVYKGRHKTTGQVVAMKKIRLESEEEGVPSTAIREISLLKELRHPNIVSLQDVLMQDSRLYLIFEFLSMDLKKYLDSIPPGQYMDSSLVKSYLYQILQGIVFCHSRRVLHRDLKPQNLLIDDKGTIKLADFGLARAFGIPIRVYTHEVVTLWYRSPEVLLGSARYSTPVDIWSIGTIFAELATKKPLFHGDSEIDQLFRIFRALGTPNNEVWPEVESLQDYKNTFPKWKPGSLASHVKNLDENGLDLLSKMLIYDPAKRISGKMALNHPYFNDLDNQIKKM

`COc1cccc(OC)c1-c1cc(C(=O)NC2(C(=O)O)C3CC4CC(C3)CC2C4)nn1-c1ccc(C(=O)N(C)CCCN(C)CCCN(C)C(=O)CN2CCN(CC(=O)[O-])CCN(CC(=O)[O-])CCN(CC(=O)[O-])CC2)cc1C(C)C.[177Lu+3]` (centres unmarked) has a tracer uptake of 1.2 %ID/g (HT-29 tumour model; host not given, pancreas; 4 h, tumour-bearing).
For `COc1cccc(OC)c1-c1cc(C(=O)NC2(C(=O)O)C3CC4CC(C3)CC2C4)nn1-c1ccc(C(=O)N(C)CCCN(C)CCCN(C)C(=O)CN2CCN(CC(=O)[O-])CCN(CC(=O)[O-])CCN(CC(=O)[O-])CC2)cc1C(C)C.[177Lu+3]` (centres unmarked), the tracer uptake was 6 %ID/g (HT-29 tumour model; host not given, blood; intravenous, 4 h, tumour-bearing).
`O=C1CC[C@H](N2Cc3cc(N4CCN(CC5CCN(c6ccc([C@@H]7c8ccc(O)cc8CC[C@@H]7c7ccccc7)cc6)CC5)CC4)ccc3C2=O)C(=O)N1` gave a Cmax of 1190 ng/mL (male Sprague-Dawley rat, plasma; oral, 20 mg/kg, fasted).
The concentration of `COc1cccc(-c2n[nH]c(SCc3ccccn3)n2)c1OC` is reported as 4.1 ng/mL (female Sprague-Dawley rat, plasma; oral, 30 mg/kg, 24 h, single dose).
The viability of `Nc1ccn([C@@H]2O[C@H](CO)[C@@H](O)C2(F)F)c(=O)n1` is reported as 90.3% (MDA-MB-231; cell growth or viability, MTT; 0.078125 µg/mL, 48 h).
`CC(=O)OC[C@@]1(C)[C@H]2CC[C@@H]3CN(Cc4ccc([N+](=O)[O-])cc4)[C@@H](C4=CCOC4=O)C[C@H]3[C@]2(C)CC[C@H]1OC(C)=O` gave a cell death of -1.7% (MRC5; cell growth or viability, ATP luminescence; 25 µM, 72 h).
The remaining activity of `CNc1ncc2c(/C=C/C(=O)N3CCC(OC)CC3)nn(Cc3cccc(C(F)(F)F)c3)c2n1` is reported as 86% (Cyclin-dependent kinase 1, with cyclin B1 (CDK1, Homo sapiens, UniProt P06493); enzyme activity, inhibitor, radiometric; 1 µM).
With `N#C[C@@]12C[C@@H]1[C@@H](n1cnc3c(N[C@@H](C4CCC4)C4CC4)nc(I)nc31)[C@H](O)[C@@H]2O` the Tmax was 1 h (male Wistar rat, plasma; oral, 1 mg/kg).
`COc1cc(/C=C/C(=O)C(=Cc2ccc(O)cc2)C(=O)/C=C/c2ccc(O)c(OC)c2)ccc1O` has a viability of 82.5% (WRL68; cell growth or viability, MTT; 99 µg/mL, 48 h).
With `O=C(c1ccc(F)cc1)C1CCN(CCn2c(=O)[nH]c3ccccc3c2=O)CC1` the compound remaining was 47% (metabolic stability, mass spectrometry; human, liver microsomes; 30 min).
The viability of `COc1cccc(NC(=O)Nc2ccc(Oc3nc4ccccc4n4cnnc34)cc2)c1` is reported as 100% (WISH; cell growth or viability, MTT; 1.56 µM, 24 h).

Excerpt of the above:
The viability of `Nc1ccn([C@@H]2O[C@H](CO)[C@@H](O)C2(F)F)c(=O)n1` is reported as 90.3% (MDA-MB-231; cell growth or viability, MTT; 0.078125 µg/mL, 48 h).
